{"data": "Measured values of several laboratories", "note": "Every numbered part comes from another study and shows a few of its results, in no order. Values joined by “and” are separate records of one study, mostly repeats; a detail may differ.", "UniProt Q8IWQ3, sequence (whole entry, looked up)": "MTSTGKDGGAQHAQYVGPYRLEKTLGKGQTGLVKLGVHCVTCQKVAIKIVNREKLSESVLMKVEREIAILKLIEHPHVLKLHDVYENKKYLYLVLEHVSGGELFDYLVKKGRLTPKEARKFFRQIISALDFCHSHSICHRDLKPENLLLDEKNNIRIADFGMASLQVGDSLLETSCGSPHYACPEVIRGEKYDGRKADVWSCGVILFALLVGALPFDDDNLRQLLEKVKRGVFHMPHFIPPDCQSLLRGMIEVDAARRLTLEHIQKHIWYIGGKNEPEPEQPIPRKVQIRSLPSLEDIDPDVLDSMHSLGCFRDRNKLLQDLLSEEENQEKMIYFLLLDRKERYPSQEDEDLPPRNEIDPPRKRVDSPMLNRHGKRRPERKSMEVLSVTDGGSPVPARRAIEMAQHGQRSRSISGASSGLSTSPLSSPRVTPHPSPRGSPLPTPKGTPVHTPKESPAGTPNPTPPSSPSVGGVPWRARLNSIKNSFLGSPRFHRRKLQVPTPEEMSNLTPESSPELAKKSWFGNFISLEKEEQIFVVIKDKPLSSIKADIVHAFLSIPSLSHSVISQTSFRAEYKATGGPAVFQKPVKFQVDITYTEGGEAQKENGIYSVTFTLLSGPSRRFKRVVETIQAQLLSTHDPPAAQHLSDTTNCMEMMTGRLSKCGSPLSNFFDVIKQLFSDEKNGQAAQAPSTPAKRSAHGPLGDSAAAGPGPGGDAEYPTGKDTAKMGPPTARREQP", "UniProt Q00535, sequence (whole entry, looked up)": "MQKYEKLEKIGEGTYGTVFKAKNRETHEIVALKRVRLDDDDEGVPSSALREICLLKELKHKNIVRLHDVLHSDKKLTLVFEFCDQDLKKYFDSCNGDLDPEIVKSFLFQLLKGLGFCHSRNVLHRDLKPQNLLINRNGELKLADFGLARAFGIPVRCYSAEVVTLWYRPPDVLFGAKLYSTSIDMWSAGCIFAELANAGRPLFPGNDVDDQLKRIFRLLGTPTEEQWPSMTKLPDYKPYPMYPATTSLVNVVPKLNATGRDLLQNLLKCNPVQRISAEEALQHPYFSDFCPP", "UniProt P11309, sequence (whole entry, looked up)": "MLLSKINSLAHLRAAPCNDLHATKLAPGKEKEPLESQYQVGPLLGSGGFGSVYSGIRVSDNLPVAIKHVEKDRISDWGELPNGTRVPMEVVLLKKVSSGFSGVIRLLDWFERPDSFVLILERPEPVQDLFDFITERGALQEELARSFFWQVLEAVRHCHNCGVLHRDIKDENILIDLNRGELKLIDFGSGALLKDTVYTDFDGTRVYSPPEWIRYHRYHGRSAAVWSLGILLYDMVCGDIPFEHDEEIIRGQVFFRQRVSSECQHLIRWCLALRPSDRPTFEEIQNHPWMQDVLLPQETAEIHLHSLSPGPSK", "UniProt P54753, sequence (whole entry, looked up)": "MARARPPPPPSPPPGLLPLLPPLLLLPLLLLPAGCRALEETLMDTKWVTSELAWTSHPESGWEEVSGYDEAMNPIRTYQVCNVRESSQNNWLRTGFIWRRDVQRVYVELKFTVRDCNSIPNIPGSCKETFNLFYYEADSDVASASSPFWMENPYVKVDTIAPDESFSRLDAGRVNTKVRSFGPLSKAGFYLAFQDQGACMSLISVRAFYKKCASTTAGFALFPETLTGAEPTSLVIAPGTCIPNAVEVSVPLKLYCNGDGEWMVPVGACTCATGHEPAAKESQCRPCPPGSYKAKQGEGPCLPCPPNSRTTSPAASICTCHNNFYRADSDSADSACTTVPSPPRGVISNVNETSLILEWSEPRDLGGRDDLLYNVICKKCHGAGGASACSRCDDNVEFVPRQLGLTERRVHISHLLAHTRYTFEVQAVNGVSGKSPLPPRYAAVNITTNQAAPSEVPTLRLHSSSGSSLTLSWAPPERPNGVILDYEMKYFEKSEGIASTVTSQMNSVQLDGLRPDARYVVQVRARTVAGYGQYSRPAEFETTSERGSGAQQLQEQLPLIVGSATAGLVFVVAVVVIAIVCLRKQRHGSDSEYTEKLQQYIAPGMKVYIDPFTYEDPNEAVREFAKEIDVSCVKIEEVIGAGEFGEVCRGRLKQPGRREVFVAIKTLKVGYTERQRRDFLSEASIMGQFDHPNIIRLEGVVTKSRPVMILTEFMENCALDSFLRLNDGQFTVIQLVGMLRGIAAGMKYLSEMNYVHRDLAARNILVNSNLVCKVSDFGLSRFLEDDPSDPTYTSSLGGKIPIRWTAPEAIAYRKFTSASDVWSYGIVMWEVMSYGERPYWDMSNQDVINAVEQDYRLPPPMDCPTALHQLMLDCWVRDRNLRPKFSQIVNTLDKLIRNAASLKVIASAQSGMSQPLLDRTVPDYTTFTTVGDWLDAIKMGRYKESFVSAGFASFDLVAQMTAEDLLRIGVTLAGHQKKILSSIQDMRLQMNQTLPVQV", "UniProt P07947, sequence (whole entry, looked up)": "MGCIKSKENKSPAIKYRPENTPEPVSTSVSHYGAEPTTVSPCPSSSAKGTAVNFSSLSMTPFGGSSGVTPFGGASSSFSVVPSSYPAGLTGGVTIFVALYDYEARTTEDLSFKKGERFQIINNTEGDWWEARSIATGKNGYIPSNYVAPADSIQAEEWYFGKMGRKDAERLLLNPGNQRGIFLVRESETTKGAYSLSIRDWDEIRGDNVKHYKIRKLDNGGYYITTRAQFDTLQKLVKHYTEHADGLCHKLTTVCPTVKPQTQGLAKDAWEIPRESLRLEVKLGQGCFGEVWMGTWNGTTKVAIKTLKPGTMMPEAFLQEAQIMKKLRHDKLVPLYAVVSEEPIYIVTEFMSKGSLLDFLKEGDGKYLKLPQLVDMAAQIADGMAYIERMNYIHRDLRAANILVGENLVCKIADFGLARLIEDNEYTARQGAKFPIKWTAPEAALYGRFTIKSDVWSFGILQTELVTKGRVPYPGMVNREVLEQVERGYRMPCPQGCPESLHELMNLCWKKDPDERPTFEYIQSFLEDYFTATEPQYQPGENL", "UniProt Q9UBS0, sequence (whole entry, looked up)": "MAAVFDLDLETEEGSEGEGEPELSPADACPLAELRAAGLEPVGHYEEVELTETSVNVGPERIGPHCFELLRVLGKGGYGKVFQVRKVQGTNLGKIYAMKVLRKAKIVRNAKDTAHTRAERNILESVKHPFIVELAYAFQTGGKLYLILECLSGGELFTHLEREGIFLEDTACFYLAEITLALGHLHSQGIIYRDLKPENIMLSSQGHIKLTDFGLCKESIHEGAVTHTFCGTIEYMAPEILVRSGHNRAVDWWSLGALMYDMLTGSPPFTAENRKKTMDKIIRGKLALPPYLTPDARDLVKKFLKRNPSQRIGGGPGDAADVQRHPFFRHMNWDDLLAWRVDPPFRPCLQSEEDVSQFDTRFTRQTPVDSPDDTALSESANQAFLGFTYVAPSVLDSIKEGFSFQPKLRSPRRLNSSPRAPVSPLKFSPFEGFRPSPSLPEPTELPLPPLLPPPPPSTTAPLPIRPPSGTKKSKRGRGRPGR", "UniProt Q9P0L2, sequence (whole entry, looked up)": "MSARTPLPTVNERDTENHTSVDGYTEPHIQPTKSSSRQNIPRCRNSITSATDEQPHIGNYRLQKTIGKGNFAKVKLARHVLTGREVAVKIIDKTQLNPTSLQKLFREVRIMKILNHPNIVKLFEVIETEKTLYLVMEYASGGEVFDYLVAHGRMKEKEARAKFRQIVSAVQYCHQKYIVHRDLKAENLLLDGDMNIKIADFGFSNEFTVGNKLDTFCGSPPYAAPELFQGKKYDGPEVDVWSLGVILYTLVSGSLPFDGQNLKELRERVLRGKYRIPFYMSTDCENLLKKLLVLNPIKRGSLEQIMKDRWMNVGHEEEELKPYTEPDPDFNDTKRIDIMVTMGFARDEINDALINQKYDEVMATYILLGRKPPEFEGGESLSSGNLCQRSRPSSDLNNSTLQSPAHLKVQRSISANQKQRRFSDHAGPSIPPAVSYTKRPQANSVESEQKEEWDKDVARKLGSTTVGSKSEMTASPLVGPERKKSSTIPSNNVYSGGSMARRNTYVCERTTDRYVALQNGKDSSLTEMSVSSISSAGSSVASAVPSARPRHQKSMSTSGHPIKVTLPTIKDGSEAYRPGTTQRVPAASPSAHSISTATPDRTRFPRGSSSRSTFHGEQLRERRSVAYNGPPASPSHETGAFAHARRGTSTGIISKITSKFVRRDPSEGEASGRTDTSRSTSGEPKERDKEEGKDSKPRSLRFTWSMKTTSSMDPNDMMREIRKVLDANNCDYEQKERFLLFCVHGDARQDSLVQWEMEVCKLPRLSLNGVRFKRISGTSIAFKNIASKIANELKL", "UniProt O96013, sequence (whole entry, looked up)": "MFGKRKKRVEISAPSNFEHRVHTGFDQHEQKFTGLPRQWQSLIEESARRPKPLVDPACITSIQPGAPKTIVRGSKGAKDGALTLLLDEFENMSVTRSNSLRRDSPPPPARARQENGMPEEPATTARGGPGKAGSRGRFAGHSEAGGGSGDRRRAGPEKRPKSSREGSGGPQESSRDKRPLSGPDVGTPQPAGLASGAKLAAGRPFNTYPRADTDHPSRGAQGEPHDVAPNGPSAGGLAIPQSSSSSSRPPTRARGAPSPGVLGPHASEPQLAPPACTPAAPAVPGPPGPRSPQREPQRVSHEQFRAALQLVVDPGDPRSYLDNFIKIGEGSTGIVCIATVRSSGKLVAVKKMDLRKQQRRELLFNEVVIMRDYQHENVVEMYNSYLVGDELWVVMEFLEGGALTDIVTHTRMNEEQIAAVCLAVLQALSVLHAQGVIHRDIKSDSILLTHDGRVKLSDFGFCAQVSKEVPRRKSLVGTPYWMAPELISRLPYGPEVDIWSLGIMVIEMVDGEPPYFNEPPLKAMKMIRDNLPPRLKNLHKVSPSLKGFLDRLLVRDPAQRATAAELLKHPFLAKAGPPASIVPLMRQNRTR"}
{"data": "Series 1", "Compound": "O=C1CCC(N2Cc3c(ccc4c3OCC43CCN(Cc4ccccc4)CC3)C2=O)C(=O)N1 (stereo not drawn)", "matrix": "plasma"}
{"species": "ICR mouse, male", "route": "oral", "dose": "3 mg/kg", "time": "2 h", "plasma concentration": "280 ng/mL and 231 ng/mL"}
{"species": "male Sprague Dawley rats", "route": "oral", "dose": "3 mg/kg", "time": "0.5 h", "plasma concentration": "68.3 ng/mL"}
{"species": "rat Sprague Dawley male", "route": "intravenous", "dose": "1 mg/kg", "time": "1 h", "plasma concentration": "202 ng/mL and 169 ng/mL"}
{"species": "male ICR mice", "route": "oral", "dose": "3 mg/kg", "time": "0.5 h", "plasma concentration": "355 ng/mL"}
{"species": "Sprague Dawley rat, male", "route": "intravenous", "dose": "1 mg/kg", "time": "1 h", "plasma concentration": "173 ng/mL"}
{"species": "male ICR mice", "route": "oral", "dose": "3 mg/kg", "time": "1 h", "plasma concentration": "308 ng/mL"}
{"species": "ICR mouse, male", "route": "intravenous", "dose": "1 mg/kg", "time": "0.25 h", "plasma concentration": "224 ng/mL and 235 ng/mL"}
{"species": "Sprague Dawley rat, male", "route": "oral", "dose": "3 mg/kg", "time": "6 h", "plasma concentration": "115 ng/mL and 106 ng/mL"}
{"species": "Sprague Dawley rat, male", "route": "oral", "dose": "3 mg/kg", "time": "0.083 h", "plasma concentration": "1.83 ng/mL and 3.03 ng/mL and 5.35 ng/mL"}
{"species": "Sprague Dawley rat, male", "route": "oral", "dose": "3 mg/kg", "time": "8 h", "plasma concentration": "33.2 ng/mL and 28.4 ng/mL"}
{"species": "Sprague Dawley rat, male", "route": "oral", "dose": "3 mg/kg", "time": "2 h", "plasma concentration": "303 ng/mL and 131 ng/mL and 113 ng/mL"}
{"species": "male ICR mice", "route": "intravenous", "dose": "1 mg/kg", "time": "0.25 h", "plasma concentration": "199 ng/mL"}
{"species": "rat", "route": "oral", "dose": "3 mg/kg", "time": "24 h", "plasma concentration": "not detected"}
{"species": "ICR mouse, male", "route": "oral", "dose": "3 mg/kg", "time": "0.25 h", "plasma concentration": "345 ng/mL and 196 ng/mL"}
{"species": "male Sprague Dawley rats", "route": "oral", "dose": "3 mg/kg", "time": "1 h", "plasma concentration": "129 ng/mL"}
{"data": "Series 2", "Compound": "COC[C@H]1OC(=O)c2coc3c2[C@@]1(C)C1=C(C3=O)[C@@H]2CCC(=O)[C@@]2(C)C[C@H]1OC(C)=O", "read-out": "enzyme activity", "mode": "inhibitor", "concentration": "0.5 µM", "relative to": "control"}
{"target": "PAK5 (Homo sapiens, UniProt Q9P286)", "remaining activity [%]": 95.8}
{"target": "ACVRL1 (Homo sapiens, UniProt P37023)", "remaining activity [%]": 98.8}
{"target": "FES (Homo sapiens, UniProt P07332)", "remaining activity [%]": 98.2}
{"target": "ERBB2 (Homo sapiens, UniProt P04626)", "remaining activity [%]": 94.5}
{"target": "MELK (Homo sapiens, UniProt Q14680)", "remaining activity [%]": 92.4}
{"target": "RPS6KB2 (Homo sapiens, UniProt Q9UBS0)", "remaining activity [%]": 100}
{"target": "YES1 (Homo sapiens, UniProt P07947)", "remaining activity [%]": 98.3}
{"target": "PAK4 (Homo sapiens, UniProt O96013)", "remaining activity [%]": 91}
{"target": "DYRK1A (Homo sapiens, UniProt Q13627)", "remaining activity [%]": 97.3}
{"target": "MARK1 (Homo sapiens, UniProt Q9P0L2)", "remaining activity [%]": 98.1}
{"target": "JAK2 (Homo sapiens, UniProt O60674)", "remaining activity [%]": 102}
{"target": "BRSK2 (Homo sapiens, UniProt Q8IWQ3)", "remaining activity [%]": 95.3}
{"target": "PIM1 (Homo sapiens, UniProt P11309)", "remaining activity [%]": 72.4}
{"target": "Cyclin-dependent kinase 5, with p35 (CDK5, Homo sapiens, UniProt Q00535)", "remaining activity [%]": 88.7}
{"target": "EPHB3 (Homo sapiens, UniProt P54753)", "remaining activity [%]": 96.8}
{"data": "Series 3", "cell line": "HEK-293T", "read-out": "pseudovirus infection", "technique": "FDA-approved drug library counter-screen", "organism": "VSV pseudotyped with VSV-G", "concentration": "10 µM", "time": "16 h", "relative to": "vehicle-treated"}
{"Compound": "COc1ccc(CN=c2[nH]c(N3CCC[C@H]3CO)ncc2C(=O)NCc2ncccn2)cc1Cl", "GFP-positive cells [%]": 103}
{"Compound": "CS(=O)(=O)OCCCCOS(C)(=O)=O", "GFP-positive cells [%]": 79.7}
{"Compound": "COC(=O)N[C@H](C(=O)N[C@@H](Cc1ccccc1)[C@@H](O)CN(Cc1ccc(-c2ccccn2)cc1)NC(=O)[C@@H](NC(=O)OC)C(C)(C)C)C(C)(C)C", "GFP-positive cells [%]": 108}
{"Compound": "NC(=O)c1ncn([C@@H]2O[C@H](CO)[C@@H](O)[C@H]2O)n1", "GFP-positive cells [%]": 74.7}
{"Compound": "C[C@H]1CNCCc2ccc(Cl)cc21", "GFP-positive cells [%]": 128}
{"Compound": "COc1c(C)c2c(c(O)c1C/C=C(\\C)CCC(=O)O)C(=O)OC2", "GFP-positive cells [%]": 1.73}
{"Compound": "Cc1cnc(NC(=O)C2=C(O)c3ccccc3S(=O)(=O)N2C)s1", "GFP-positive cells [%]": 91.3}
{"Compound": "CCOC(=O)c1ncn2c1CN(C)C(=O)c1cc(F)ccc1-2", "GFP-positive cells [%]": 104}
{"Compound": "OC[C@H]1O[C@@H](O[C@@H]2[C@@H](CO)OC(O)(CO)[C@H]2O)[C@H](O)[C@@H](O)[C@H]1O (mixture of isomers)", "GFP-positive cells [%]": 94.2}
{"Compound": "CCCCC(CC)COC(=O)C(C#N)=C(c1ccccc1)c1ccccc1 (stereo not drawn)", "GFP-positive cells [%]": 114}
{"Compound": "CC(O)(P(=O)(O)O)P(=O)(O)O", "GFP-positive cells [%]": 118}
{"Compound": "Cc1cn([C@H]2C=C[C@@H](CO)O2)c(=O)[nH]c1=O", "GFP-positive cells [%]": 97}
{"Compound": "CC1Cc2ccccc2N1NC(=O)c1ccc(Cl)c(S(N)(=O)=O)c1 (stereo not drawn)", "GFP-positive cells [%]": 96.1}
{"Compound": "CC(=O)S[C@@H]1CC2=CC(=O)CC[C@]2(C)[C@H]2CC[C@@]3(C)[C@@H](CC[C@@]34CCC(=O)O4)[C@H]12", "GFP-positive cells [%]": 98}
{"Compound": "O=C(OCc1ccccc1)c1ccccc1", "GFP-positive cells [%]": 146}
{"Compound": "COc1ccc(C(=O)c2ccccc2)c(O)c1", "GFP-positive cells [%]": 73.7}
{"Compound": "COc1cc([C@@H]2c3cc4c(cc3[C@@H](O[C@@H]3O[C@@H]5CO[C@@H](C)O[C@H]5[C@H](O)[C@H]3O)[C@H]3COC(=O)[C@H]23)OCO4)cc(OC)c1O", "GFP-positive cells [%]": 89.6}
{"Compound": "CC(=O)N[C@@H](CS)C(=O)O", "GFP-positive cells [%]": 87.9}
{"Compound": "CCCc1nn(C)c2c(=O)[nH]c(-c3cc(S(=O)(=O)N4CCN(C)CC4)ccc3OCC)nc12", "GFP-positive cells [%]": 103}
{"Compound": "CC(C)(C#N)c1cc(Cn2cncn2)cc(C(C)(C)C#N)c1", "GFP-positive cells [%]": 109}
{"Compound": "CC(C)(C)NC(=O)[C@H]1CC[C@H]2[C@@H]3CC[C@H]4NC(=O)C=C[C@]4(C)[C@H]3CC[C@]12C", "GFP-positive cells [%]": 81.5}
{"Compound": "CO/N=C(\\C(=O)N[C@@H]1C(=O)N2C(C(=O)O)=C(COC(C)=O)CS[C@H]12)c1csc(N)n1", "GFP-positive cells [%]": 84.5}
{"Compound": "CCC(=O)O[C@H]1CC[C@H]2[C@@H]3CCC4=CC(=O)CC[C@]4(C)[C@H]3CC[C@]12C", "GFP-positive cells [%]": 115}
{"Compound": "CC(=O)[C@H]1CC[C@H]2[C@@H]3CCC4=CC(=O)CC[C@]4(C)[C@H]3CC[C@]12C", "GFP-positive cells [%]": 99.6}
{"Compound": "CC1(C)S[C@@H]2[C@H](NC(=O)Cc3ccccc3)C(=O)N2[C@H]1C(=O)O", "GFP-positive cells [%]": 80.5}
{"data": "Series 4", "organism": "Sarcocystis neurona", "read-out": "parasite growth", "concentration": "10 µM"}
{"SMILES": "CC(C)CC(N(C)C)C1(c2ccc(Cl)cc2)CCC1.Cl (stereo not drawn)", "inhibition [%]": -20.6}
{"SMILES": "CNC1=Nc2ccc(Cl)cc2C(c2ccccc2)=[N+]([O-])C1", "inhibition [%]": -20.1}
{"SMILES": "Oc1ccc2c3c1O[C@H]1[C@@H](O)CC[C@@]4(O)[C@@H](C2)N(CC2CCC2)CC[C@]314", "inhibition [%]": -20.3}
{"SMILES": "CN1CC[C@@]23CCCC[C@@H]2[C@@H]1Cc1ccc(O)cc13.O=C(O)C(O)C(O)C(=O)O", "inhibition [%]": -24.6}
{"SMILES": "CC(C)N(CCC(C(N)=O)(c1ccccc1)c1ccccn1)C(C)C (stereo not drawn)", "inhibition [%]": -26.5}
{"SMILES": "O=C1CC[C@@]2(O)[C@H]3Cc4ccc(O)c5c4[C@@]2(CCN3CC2CC2)[C@H]1O5", "inhibition [%]": -33.7}
{"SMILES": "CCCCC/C=C\\C/C=C\\C/C=C\\C/C=C\\CCCC(=O)Nc1ccc(O)cc1", "inhibition [%]": 4.5}
{"SMILES": "c1ccc2c3c([nH]c2c1)CNCC3", "inhibition [%]": -28.7}
{"note": "Excerpt of the above (series 1):"}
{"species": "male ICR mice", "route": "oral", "dose": "3 mg/kg", "time": "1 h", "plasma concentration": "308 ng/mL"}
{"species": "ICR mouse, male", "route": "oral", "dose": "3 mg/kg", "time": "0.25 h", "plasma concentration": "345 ng/mL and 196 ng/mL"}
{"species": "male ICR mice", "route": "oral", "dose": "3 mg/kg", "time": "0.5 h", "plasma concentration": "355 ng/mL"}
{"species": "Sprague Dawley rat, male", "route": "oral", "dose": "3 mg/kg", "time": "2 h", "plasma concentration": "303 ng/mL and 131 ng/mL and 113 ng/mL"}
{"species": "Sprague Dawley rat, male", "route": "oral", "dose": "3 mg/kg", "time": "0.083 h", "plasma concentration": "1.83 ng/mL and 3.03 ng/mL and 5.35 ng/mL"}
{"species": "Sprague Dawley rat, male", "route": "intravenous", "dose": "1 mg/kg", "time": "1 h", "plasma concentration": "173 ng/mL"}
{"species": "rat Sprague Dawley male", "route": "intravenous", "dose": "1 mg/kg", "time": "1 h", "plasma concentration": "202 ng/mL and 169 ng/mL"}
